Results gathered from unrelated publications.
Protocols differ between the studies behind these lines. ± gives the spread as reported.

For `CNS(=O)(=O)Nc1nccc(Cc2c(C)c3ccc(Oc4ncccc4F)cc3oc2=O)c1F`, the IC50 was > 1 µM (769-P; cell viability; 7 days).
`CN1CCCNC(=O)c2cccc(c2)C(=O)NCCCN(C)CCCNc2cccc3c2C(=O)c2cccc(c2C3=O)NCCC1`: “log2 fold change” -1.27 (SAS; RNA-Seq, measured: TDP2 mRNA; 1 µM, 6 h; baseline: untreated cells).
The ΔTm of `C[n+]1cccc2cc(/C=N/NC(=O)c3cc(C(=O)N/N=C/c4ccc5c(ccc[n+]5C)c4)ncn3)ccc21` is reported as 3.2 ± 0.5 °C (myc22 MYC G4-DNA parallel; FRET melting; 1 µM, K1 buffer, DNA 0.2 µM).
`Cc1ncsc1-c1ccc(C(C)NC(=O)C2CC(O)CN2C(=O)C(NC(=O)CCCCCCCCCCN2CCCC(Nc3ncc(Cl)c(Nc4ccccc4S(=O)(=O)C(C)C)n3)C2)C(C)(C)C)cc1` (stereo not shown) — result for “log2 fold change”: -1.03 (22Rv1; RNA-seq, measured: PHLPP2 mRNA; concentration not given; baseline: DMSO).
`O=C(N/N=C/c1ccc(C[n+]2ccccc2)cc1)c1ccc2ccc(C(=O)N/N=C/c3ccc(C[n+]4ccccc4)cc3)nc2n1` has a ΔTm of 11.4 ± 0.2 °C (myc22 MYC G4-DNA parallel; FRET melting; 1 µM, K1 buffer, DNA 0.2 µM, added: ds26 10 µM).
`COc1ccc(C(=O)CCc2cc(C(CCc3ccc(O)cc3OC)c3ccc(O)cc3)c(O)cc2OC)cc1` (racemic) has a DHA level of 127000 ± 36400 pg/mL (human blood; 0.3 µM, added: A23187).
With `Nc1ncc(-c2cc(-c3cnn(CC(F)(F)F)c3)ncc2F)nc1C(=O)NC1CNCC(F)C1` (stereo not shown) the remaining binding was 78% (TLK2; KINOMEscan; 1 µM; baseline: DMSO control).
`C=CC(=O)Nc1cccc(Cn2ncc3cnc(Nc4cnn(CCOC)c4)nc32)c1` — result for “percent of control”: 32% (CLK2 human; binding, KINOMEscan; 100 nM; lower = stronger binding).
`C=CC(=O)N1[C@H](c2ccc3c(c2)OCO3)c2[nH]c3ccccc3c2C[C@@H]1C(=O)N1CCN(C)CC1` has a relative co-enrichment of 106% (human cyclin E1 N112C-3xFLAG:CDK2; co-IP with TMT proteomics, measured: BCLAF1; concentration not given, Q9NYF8; baseline: wild type DMSO).
For `C[n+]1cc(/C=N/NC(=O)C(=O)N/N=C/c2cc3ccccc3[n+](C)c2)cc2ccccc21`, the ΔTm was 3.4 ± 0.5 °C (myc22 MYC G4-DNA parallel; FRET melting; 1 µM, K1 buffer, DNA 0.2 µM).
Under “log2 fold change”, `COC1CN([C@H]2CC[C@H]([C@@]3(C)Oc4c(Cl)cc(C(=O)NCc5c(SC)cc(C)[nH]c5=O)c(C)c4O3)CC2)C1` is recorded as 1.47 (RNA-seq, measured: CNRIP1 mouse homolog; mouse, HT-1376 xenograft, whole blood; dose not given; baseline: vehicle).
`O=C(N/N=C/c1cc[n+](CC2CC2)c2ccccc12)c1cncc(C(=O)N/N=C/c2cc[n+](CC3CC3)c3ccccc23)n1` has a ΔTm of 20.7 ± 0.3 °C (myc22 MYC G4-DNA parallel; FRET melting; 1 µM, K1 buffer, DNA 0.2 µM, added: ds26 10 µM).
With `COc1cc(O)ccc1CCC(c1ccc(O)cc1)c1cc2c(c(C)c1O)OC(c1ccc(O)cc1)CC2` (mixture of isomers) the amount was 2800 ± 1400 pg/mL blood (measured: 12-HEPE; human whole blood; 0.3 µM, added: Escherichia coli).
For `CCN(CC)CC(=O)Nc1cccc(-n2cc(-c3ccc4ccc(-c5cn(-c6cccc(NC(=O)CN(CC)CC)c6)nn5)cc4c3)nn2)c1`, the fold regulation was -1.27 (RCC4; PCR array, measured: LEP; 5 x IC50, 4 h, normoxia; baseline: untreated).
The bacterial load of `C=C(NC(=O)c1csc(-c2nc3c(cc2O)-c2nc(cs2)C(=O)NC(C(C)O)C(=O)NC(=C(C)OC)c2nc(cs2)C(=O)NC2c4nc(cs4)C(=O)NC(COC(=O)c4c5c6c(cccc6n4O)COC(=O)C(OC4CC(C)(O)C(N(C)C)C(C)O4)C2OC5)c2nc-3cs2)n1)C(N)=O` (stereo not shown) is reported as 4.78 log CFU/g (Streptococcus pneumoniae; -4, immunocompromised mice, lung infection, lung; 32 mg/kg/day once daily, 24 h post-dose).
`C[n+]1cc(/C=N/NC(=O)c2cc(C(=O)N/N=C/c3cc4ccccc4[n+](C)c3)ncn2)cc2ccccc21` has a ΔTm of 3.7 ± 0.3 °C (myc22 MYC G4-DNA parallel; FRET melting; 1 µM, K1 buffer, DNA 0.2 µM).
